Results pooled from the literature.
Lines come from different studies, so protocols differ.
Observed: metabolic stability
Species: human

Structure (SMILES) | system | conditions | half-life
O=c1c(-c2cnn(-c3ccc(Cl)cc3)c2)c(C(F)(F)F)oc2c(O)c(O)ccc12 | liver microsomes | – | > 8.33 h
CCn1c(C)c(Cc2ccc(Cl)c(O[C@H](C)C(=O)O)c2)c2ccc(C(=O)N[C@@H](C)c3ccc(C(C)(C)C)cc3)cc21 | liver microsomes | – | > 1 h
CN(C)C(=O)c1ccnc(N2Cc3cn(Cc4ccc(F)cc4Cl)nc3C2)n1 | liver microsomes | – | 1.7 h
O=C(N1CCCCC1)C12CC(c3ccccc3)(C1)C2(F)F | liver microsomes | 2 µM, pH 7.4 | 1.43 h
O=C(NC1CCCCC1)c1cccc(N2Cc3cn(Cc4ccc(F)cc4)nc3C2)c1 | liver microsomes | – | > 16.7 h
Cc1c(Cc2ccc(Cl)c(O[C@H](C)C(=O)O)c2)c2ccc(C(=O)N[C@@H](C)c3ccc(C(C)(C)C)cc3)cc2n1CC(C)C | liver microsomes | – | > 1 h
CCC(CC)CNC(=N)NC(=N)NCCCCCCNC(=N)NC(=N)NCC(CC)CC | liver microsomes | 2 µM | 11.1 h
CN(C)C(=O)c1ccnc(N2Cc3cn(Cc4ccc(F)c(Cl)c4)nc3C2)n1 | liver microsomes | – | 2.25 h
O=C(c1ccc(-c2ccccc2)cc1)N1CCCCC1 | liver microsomes | 2 µM, pH 7.4 | 2.32 h
N=C(NCC[C@H](NC(=O)c1noc(-c2cc(F)ccc2F)n1)c1nc2ccccc2[nH]1)c1ccc([N+](=O)[O-])o1 | liver microsomes | 1 µM | 0.0483 h
N#Cc1cccc(N2Cc3cn(Cc4ccc(F)cc4)nc3C2)c1 | liver microsomes | – | 0.7 h
Cn1cnc([N+](=O)[O-])c1Sc1ccccc1C(=O)NCCC(N)=O | blood | 1 µM, whole blood | 0.998 h
Cc1c(Cc2cc(F)cc(OC(C)(C)C(=O)O)c2)c2ccc(C(=O)N[C@@H](C)c3cc(F)cc(C(C)(C)C)c3)cc2n1CC1CCC1 | liver microsomes | – | 0.467 h
CN1CCN(C(=O)c2ccnc(N3Cc4cnn(Cc5ccc(F)cc5)c4C3)n2)CC1 | liver microsomes | – | 0.233 h
Cc1c(Cc2cccc(OC(C)(C)C(=O)O)c2)c2ccc(C(=O)N[C@@H](C)c3ccc(C(C)(C)C)cc3)cc2n1CC1CCC1 | liver microsomes | – | > 1 h
CC(C)C[C@H](NC(=O)[C@H](CO)NC(=O)[C@H](CCC(=O)O)NC(=O)CNC(=O)[C@H](C)NC(=O)OCc1ccccc1)C(=O)N[C@@H](Cc1ccc(O)cc1)C(=O)N[C@@H](CCC(=O)O)C(N)=O | plasma | – | 12.6 h
C=CC(=O)N1CCCC(n2c(=O)c3ncccc3n(Cc3ccc(Oc4ccccc4)cc3)c2=O)C1 (centres unmarked) | hepatocytes | 1 µM | 1.41 h
C[C@@H]1NC(=O)[C@H](CCCCN)NC(=O)[C@H](CCCNC(=N)N)NC(=O)[C@H](Cc2ccccc2)NC(=O)[C@H](CCCCN)NC(=O)CC/C=C/CCC(=O)NCCCC[C@@H](C(N)=O)NC(=O)[C@H](Cc2ccccc2)NC(=O)[C@H](Cc2ccccc2)NC(=O)[C@H](CCCNC(=N)N)NC(=O)[C@H](CCCCN)NC(=O)[C@H](Cc2ccccc2)NC1=O | liver microsomes | 3.1 µM, pH 7.4 | 0.92 h
CN(C)C(=O)c1ccnc(N2Cc3cn(Cc4ccc(F)cc4)nc3C2)n1 | liver microsomes | – | 12.5 h
O=S(=O)(NCc1ccncc1)c1ccc(C2CCCCC2)cc1 | hepatocytes | 1 µM | 1.32 h
O=C(Nc1cc(-c2ccnc3[nH]ccc23)c(Cl)cn1)[C@H]1CCC[C@@H](NC(=O)C(F)(F)F)C1 | liver microsomes | – | 0.94 h
Cc1c(Cc2ccc(Cl)c(OC(C)C(=O)O)c2)c2ccc(C(=O)NC(C)c3ccc(C(C)(C)C)cc3)cc2n1CC1CC1 (centres unmarked) | liver microsomes | – | > 1 h
Cc1nc2ccc(S(=O)(=O)n3nc(SCc4ccc(Cl)cc4)nc3N)cc2s1 | liver microsomes | 1 µM, pH 7.4 | 0.0417 h
Cc1c(Cc2cccc(OC(C)(C)C(=O)O)c2)c2ccc(C(=O)N[C@@H](C)c3cccc(C(C)(C)C)c3)cc2n1CC(C)C | liver microsomes | – | > 1 h
C/C(=N\OCCN1CCCC1)c1ccc(C(F)(F)F)cc1 | liver microsomes | – | 0.573 h
Cc1c(Cc2ccc(Cl)c(O[C@@H](C)C(=O)O)c2)c2ccc(C(=O)N[C@@H](C)c3ccc(C(C)(C)C)cc3)cc2n1CC1CCC1 | liver microsomes | – | 0.8 h
CN(C)C(=O)c1cccc(N2Cc3cn(Cc4ccc(F)cc4F)nc3C2)c1 | liver microsomes | – | 1.13 h
Cc1c(Cc2cc(F)cc(OC(C)(C)C(=O)O)c2)c2ccc(C(=O)N[C@@H](C)c3cccc(C(C)(C)C)c3)cc2n1CC(C)C | liver microsomes | – | > 1 h
Cc1ncsc1-c1ccc(CNC(=O)[C@@H]2C[C@@H](O)CN2C(=O)[C@@H](NC(=O)COCCOCCOCCNC(=O)C[C@@H]2N=C(c3ccc(Cl)cc3)c3c(sc(C)c3C)-n3c(C)nnc32)C(C)(C)C)cc1 | liver microsomes | 1 µM | 0.015 h
